Published values gathered from unrelated publications.
Protocols differ between the studies behind these lines. “And” joins repeats or separate records; there may be more than shown. ± marks the error that the study gave.
Technique: steady-state kinetics
B1: enzyme (Acinetobacter baumannii, UniProt A0A5P1UDB1); chain MFIEQDIQLGYVPFPKSRAQQYRDEGCWKSQTHFQLLASLKDRFAQRVAVIQDDKQLTYQQLYDYAIHYGTYLKQQGIRETDFVLLQSPNVIEVFIVIFGLYAIGARPVFCLHGHGSYEIENIARQSRAVGFLKLCGSANESTATDVCEEFSKPNFKLWFRESIVSRSSIEASLPQLQGVAPAFNLRAQSESEDIAFLQLSGGTTGLPKLIPRTHADYIYSIEKSVDVAGLTQDTKQLVVLPVMHNFCMSSPGFLGVFYVGGTVVLSQLTHPRVCFELIEKYQIQQVSLVPAIATLWLNAESLKDYDLSSLQVVQVGGAKLLPSLAEQIIDTLQVKLQQVYGMAEGLVNFTHLDDSDQITIQTQGKKLSHLDEIRIADQDGNALPINAIGHIQTRGPYTINGYYNLPEINQRAFTQDGFYKTGDIGYLDENLNIVVTGREKEQINRSGEKITPSEIEEFILQYPSVKDVCVIGVSDDYLGERIKAIIIPKLDDSEINLKNIRKFLISKNIAHFKIPDEIEVVADFKYTHVGKVNRQKLG
B2: aspC A106G/A218G/F210I/I29V/I33V/I68L/I71L/N30D/N64T/S135A/T100S/V136I/V375I (Escherichia coli, UniProt P00509); chain MFENITAAPADPILGLADLFRADERPGKVDLGVGVYKDETGKTPVLTSVKKAEQYLLENETTKTYLGLDGLPEFGRCTQELLFGKGSALINDKRARTAQSPGGTGGLRVAADFLAKNTSVKRVWVSNPSWPNHKAIFNSAGLEVREYAYYDAENHTLDFDALINSLNEAQAGDVVLFHGCCHNPTGIDPTLEQWQTLAQLSVEKGWLPLIDFAYQGFGRGLEEDAEGLRAFAAMHKELIVASSYSKNFGLYNERVGACTLVAADSETVDRAFSQMKAAIRANYSNPPAHGASVVATILSNDALRAIWEQELTDMRQRIQRMRQLFVNTLQEKGANRDFSFIIKQNGMFSFSGLTKEQVLRLREEFGVYAVASGRINVAGMTPDNMAPLCEAIVAVL
B3: enzyme (Methylibium petroleiphilum, UniProt A2SI32); chain PFAQIYLIEGRTEEQKRAVIEKVTQAMMEAVGAPKENVRVWIHDVPKENWGIGGVSAKALGR
B4: enzyme S252E (Schizosaccharomyces pombe, UniProt P78804); chain MSTPYEPEFQQAYKEIVGSIESSKLFEVHPELKRVLPIISIPERVLEFRVTWEDDKGNCRVNTGYRVQFNSALGPYKGGLRFHPSVNLSILKFLGFEQIFKNALTGLPMGGGKGGSDFDPKGKSDNEIRRFSQAFMRQLFRYIGPQTDVPAGDIGVTGFVVMHMFGEYKRLRNEYSGVVTGKHMLTGGSNIRPEATGYGVVYYVKHMIEHRTKGAETLKGKRVAISGSGNVAQYAALKCIQEGAIVKSISDEKGVLIAKTAEGLVPEEIHEIMALKEKRASIADSASLCKKHHYIAGARPWTNVGEIDIALPCATQNEVSGEEAAALIKQGCRYVAEGSNMGSSAEAVEVFEKSRASGEGCWLAPGKAANAGGVAVSGLEMAQNAQFSTWTHAEVDAKLAGIMQNIFEQSTDVASKYCDSGSNNIPSLVDGANIAGFLKVATAMQAVGDWW
B5: acsA (Pseudomonas chlororaphis, UniProt Q5CD72); chain MRDYEHVVESFDYLQSATQDLHGELTALNACVECCDRHAHGEAVALYCEAQDGHAERYRFRDLQRQAARFGNFLREQGVKPGDRVAGLMPRTVELLIAILGTWRIGAVYQPLFTAFGPKAIEQRLNCSNARWIVTDPHNRPKLDDVTDCPSIVVTGGAPQNPADHHFWSALNRQADDCAPVLLDASAPFLLMCTSGTTGPAKPLEVPLSAILAFKGYMRDAIDLRADDRFWNLADPGWAYGLYYAVTGPLACGYATLFYDGPFTVESTRHIIAKYAINNLAGSPTAYRFLIAAGAEFADAVRGRLRAVSSAGEPLNPQVVRWFAEQLGVVIHDHYGQTEIGMVLCNHHGLRHPVREGSAGYAVPGYRIVVLDKAHRELPAGQPGVLAVDRERSPLCWFDGYLGMPTQAFAGRYYLSGDIVELNDDGSISFVGRNDDLITTSGYRVGPFDVESALIEHPAVVEAAVIGKPDPQRTELIKAFVVLNTPYLPSPELAEELRLHVRQRLAAHAYPREMEFVDHLPKTPSGKLQRFILRNQEIAKQQALG
B6: enzyme H130Y (Salinispora arenicola, UniProt A8M783); chain MASTPWISFTTDYGLADGFVAACHGVLARLAPTARVIDVTHLVPPGDVRRGAAVLAQTVPYLPAAVHVAVVDPGVGTARRAIALTAGNGLLVGPDNGLLLDAATALGGVDAAVELTNPDWLGARMSATFYGRDVFAPVAARLALGAPLADAGPAVEPGALVRLPTPLVQPETDGFTAEVLTVDHFGNVQLAATGALLESLPRSLRVAHRPAVHARTFDDAPPGGLLVHVDSAGLVAVAVNGGRAADLLAVTPGDQLRVTAG
B7: enzyme (Oryza sativa, UniProt Q6ZGQ4); chain ASGPPFSCGAPSSAAFCNPRLPIEQRADDLVSRLTLEEKISQLGDQSPAVDRLGVPAYKWWSEALHGVSNAGRGIHLDGPLRAATSFPQVILTAASFNPHLWYRIGQVIGTEARAVYNNGQAEGLTFWAPNINVFRDPRWGRGQETPGEDPTVTGKYAAVFVRGVQGYALAGAINSTDLEASACCKHFTAYDLENWKGVTRYAFDAKVTAQDLADTYNPPFRSCVEDGGASGIMCSYNRVNGVPTCADYNLLSKTARGDWRFYGYITSDCDAVSIIHDVQGYAKTAEDAVADVLKAGMDVNCGSYVQEHGLSAIQQGKITEQDINRALHNLFAVRMRLGLFNGNPKYNRYGNIGPDQVCTQEHQNLALEAAQHGVVLLKNDANALPLSKSQVSSIAVIGHNANDATRLLGNYFGPPCISVTPLQVLQGYVKDTRFLAGCNSAACNVSSIGEAAQLASSVDYVVLFMGLDQDQEREEVDRLELSLPGMQENLINTVANAAKKPVILVLLCGGPVDVTFAKYNPKIGAILWAGYPGEAGGIAIAQVLFGEHNPGGRLPVTWYPKEFTSVPMTDMRMRADPSTGYPGRTYRFYRGNTVYKFGYGLSYSKYSHHFVANGTKLPSLSSIDGLKAMATAAAGTVSYDVEEIGPETCDKLKFPALVRVQNHGPMDGRHPVLLFLRWPNGAADGGRPASQLIGFQSLHLKSMQTVHVEFEVSPCKHFSRATEDGKKVIDHGSHFMMVGDDEFEMSFTP
B8: enzyme (UniProt A0A097IUE6); chain TKRAMMATVSSLGIDKATGITKPSKVHRNLPYPEVFEHEQKNKEGEVTKNGTFCVSTGAFTGRSPKDKYFVHQSPSCDTLDWGKINVGVAPDVYKNIYEKAVKHYNENVDSMYVFDGYCGTSPKSRKNVRIITELAWQHHFAKNMFIRPDSEKEVENFNPDFTIINACKVLNKDYKELGLNSDVAVIFNVEEKMAVITGTWYGGEMKKGIFSMMNYWLPLDGIMAMHCSANKGKGGDTALFFGLSGTGKTTLSADPDRYLIGDDEHGWDDHGIFNFEGGCYAKTVNLSKDNEPEIYDAIKRDALLENVIIKSDGEPDYTDTSRTENTRVSYPIYHIDNHEPSGMGGHPTSIIFLTCDAFGVLPPVSRLSGGQAMYHFLSGYTAKVAGTERGVTEPTPNFSACFGAAFLTLHPTKYADLLQKKLDKHQTQCFLINTGWTGGGYGVGKRMSIKATRACVNAVLDGSINKANFTNDEVFGFEVPAELPEVPAQVLNPRAAWSDKEKYDNTRIKLAGMFKDNFKKFIKEGATDYSSYGPK
B9: SCO6712 S292F/V290N/Y229F (Streptomyces coelicolor, UniProt Q9XAL8); chain AKGITARTAPAGGEVRHLKMYAEKLADGQMGYGFEKGKASVPGPLIEVNEGDTLHIEFTNTMDVRASLHVHGLDYEISSDGTAMNKSDVEPGGTRTYTWRTHKPGRRDDGTWRPGSAGYWHYHDHVVGTEHGTGGIRNGLYGPVIVRRKGDVLPDATHTIVFNDMTINNRKPHTGPDFEATVGDRVEIVMITHGEFYHTFHMHGHRWADNRTGILTGPDDPSRVIDNKITGPADSFGFQIIAGEGVGAGAWMYHCHNQFHSDMGMVGLFLVKKPDGTIPGYEPHEHGGATAKSGESGEPTGGAAAHEHEH
B10: enzyme (Rhodospirillum rubrum, UniProt Q2RSU5); chain MSDSNDDRPFRPFQSQYRWPGVDLLAYKEEGSAPFRSVTRQVLFSGNGLTGELRYFEVGPGGHSTLERHQHAHGVMILKGRGHAMVGRAVSAVAPYDLVTIPGWSWHQFRAPADEALGFLCMVNAERDKPQLPTEADLAMLRADDAVAAFLDGLAG
UniProt Q9C969, sequence (whole entry, looked up): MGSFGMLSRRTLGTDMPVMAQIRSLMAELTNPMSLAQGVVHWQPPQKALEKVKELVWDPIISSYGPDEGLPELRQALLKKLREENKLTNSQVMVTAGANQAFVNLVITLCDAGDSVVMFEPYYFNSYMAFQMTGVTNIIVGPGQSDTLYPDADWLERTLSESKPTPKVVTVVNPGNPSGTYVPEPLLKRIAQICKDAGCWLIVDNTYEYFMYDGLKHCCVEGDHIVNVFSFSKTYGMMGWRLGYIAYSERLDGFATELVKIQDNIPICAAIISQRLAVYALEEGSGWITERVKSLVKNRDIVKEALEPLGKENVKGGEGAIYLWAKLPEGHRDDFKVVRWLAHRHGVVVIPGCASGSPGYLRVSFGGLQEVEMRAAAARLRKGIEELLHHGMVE
UniProt P0A9Q9, sequence (whole entry, looked up): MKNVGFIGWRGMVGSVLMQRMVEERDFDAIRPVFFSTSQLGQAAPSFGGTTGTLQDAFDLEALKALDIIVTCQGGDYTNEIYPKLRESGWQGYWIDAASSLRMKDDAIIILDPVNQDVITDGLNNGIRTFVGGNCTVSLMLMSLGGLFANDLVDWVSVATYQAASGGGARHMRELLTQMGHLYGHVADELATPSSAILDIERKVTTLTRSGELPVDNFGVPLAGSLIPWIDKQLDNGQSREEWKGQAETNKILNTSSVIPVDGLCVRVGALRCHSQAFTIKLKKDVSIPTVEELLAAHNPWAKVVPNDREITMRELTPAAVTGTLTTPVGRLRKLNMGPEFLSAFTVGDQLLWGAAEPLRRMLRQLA
UniProt P09546, sequence (whole entry, looked up): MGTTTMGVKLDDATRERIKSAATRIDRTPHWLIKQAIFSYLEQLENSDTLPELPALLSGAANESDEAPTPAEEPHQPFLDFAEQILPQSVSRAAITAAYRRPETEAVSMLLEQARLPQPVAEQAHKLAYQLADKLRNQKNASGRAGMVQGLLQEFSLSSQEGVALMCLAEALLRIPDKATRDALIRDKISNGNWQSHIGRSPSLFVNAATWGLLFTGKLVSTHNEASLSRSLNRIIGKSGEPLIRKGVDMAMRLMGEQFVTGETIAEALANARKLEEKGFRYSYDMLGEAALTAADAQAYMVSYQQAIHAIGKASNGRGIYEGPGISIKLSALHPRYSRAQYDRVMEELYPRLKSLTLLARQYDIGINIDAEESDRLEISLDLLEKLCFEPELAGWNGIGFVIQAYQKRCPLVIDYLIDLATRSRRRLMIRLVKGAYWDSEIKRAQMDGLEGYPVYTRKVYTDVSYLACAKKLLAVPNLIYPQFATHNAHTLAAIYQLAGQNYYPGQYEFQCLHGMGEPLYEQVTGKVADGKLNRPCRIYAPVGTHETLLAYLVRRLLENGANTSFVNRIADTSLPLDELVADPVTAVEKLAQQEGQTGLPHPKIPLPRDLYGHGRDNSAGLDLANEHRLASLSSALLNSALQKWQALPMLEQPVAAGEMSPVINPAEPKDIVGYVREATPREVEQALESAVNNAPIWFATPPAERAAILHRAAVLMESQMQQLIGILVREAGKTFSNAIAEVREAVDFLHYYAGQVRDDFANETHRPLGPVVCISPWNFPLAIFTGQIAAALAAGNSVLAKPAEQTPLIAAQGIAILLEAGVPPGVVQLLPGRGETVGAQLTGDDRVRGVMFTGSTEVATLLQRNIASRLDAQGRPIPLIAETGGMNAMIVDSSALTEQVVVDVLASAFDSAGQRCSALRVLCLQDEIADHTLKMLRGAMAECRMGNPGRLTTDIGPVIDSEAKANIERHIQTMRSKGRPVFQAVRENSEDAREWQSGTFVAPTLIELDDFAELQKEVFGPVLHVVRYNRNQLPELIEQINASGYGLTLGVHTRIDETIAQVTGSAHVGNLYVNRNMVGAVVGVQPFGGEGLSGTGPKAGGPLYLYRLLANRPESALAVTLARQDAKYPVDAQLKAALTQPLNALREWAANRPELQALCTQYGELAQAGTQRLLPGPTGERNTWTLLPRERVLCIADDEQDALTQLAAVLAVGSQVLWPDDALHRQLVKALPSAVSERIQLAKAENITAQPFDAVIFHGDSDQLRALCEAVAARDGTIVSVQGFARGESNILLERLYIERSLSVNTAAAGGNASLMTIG
UniProt Q93UV0, sequence (whole entry, looked up): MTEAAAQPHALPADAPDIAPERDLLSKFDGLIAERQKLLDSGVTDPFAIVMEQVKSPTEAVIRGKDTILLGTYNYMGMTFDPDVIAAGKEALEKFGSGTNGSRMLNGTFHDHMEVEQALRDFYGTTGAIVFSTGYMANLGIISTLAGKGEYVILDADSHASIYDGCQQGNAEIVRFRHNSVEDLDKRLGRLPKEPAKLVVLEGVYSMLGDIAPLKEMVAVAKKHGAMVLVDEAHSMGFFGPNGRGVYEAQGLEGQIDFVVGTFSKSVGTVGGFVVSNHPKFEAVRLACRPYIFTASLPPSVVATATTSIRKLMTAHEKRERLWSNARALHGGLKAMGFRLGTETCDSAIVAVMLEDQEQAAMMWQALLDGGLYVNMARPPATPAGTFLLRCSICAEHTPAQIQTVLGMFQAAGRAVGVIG

B1 (enzyme) — kcat/Km (O=C(O)c1cccc(Cl)c1O; pH 7.5, 37 °C, apparent): 398 M⁻¹ s⁻¹
enzyme (UniProt A0A4R3LQ44) — kcat/Km (O=C(O)[C@H](O)[C@@H](O)[C@@H](O)[C@H](O)CO; pH 7.5, 50 °C): 24400 ± 2500 M⁻¹ s⁻¹
enzyme (Lacticaseibacillus rhamnosus, UniProt A0A7S7JIA0) — kcat/Km (C[C@@H]1O[C@@H](Oc2ccc([N+](=O)[O-])cc2)[C@@H](O)[C@H](O)[C@@H]1O; pH 5, 40 °C): 14700 M⁻¹ s⁻¹
putA (Escherichia coli, UniProt P09546) — kcat/Km (COC1=C(OC)C(=O)C(CC=C(C)C)=C(C)C1=O; pH 7.4, 20 °C, together with: proline 200 mM): 31000 ± 4600 M⁻¹ s⁻¹
gdh E198G/N97F (Bacillus subtilis) — kcat/Km (NC(=O)c1ccc[n+]([C@@H]2O[C@H](COP(=O)(O)OP(=O)(O)OC[C@H]3O[C@@H](n4cnc5c(N)ncnc54)[C@H](O)[C@@H]3O)[C@@H](O)[C@H]2O)c1; pH 7, 55 °C): 69300 ± 5170 M⁻¹ s⁻¹
HNL E79H/K236M/T11G (Hevea brasiliensis) — kcat/Km (CC(=O)Oc1ccc([N+](=O)[O-])cc1; pH 7.2, 22 °C): 7.67 M⁻¹ s⁻¹
B2 — kcat/Km (N[C@@H](CC(=O)O)C(=O)O; pH 7.5, 25 °C, together with: PLP 20 µM): 43000 M⁻¹ s⁻¹
B3 (enzyme) — kcat/Km (C/C(=C\C=C(/O)C(=O)O)C(=O)O; pH 7.3, 24 °C): 1e+06 M⁻¹ s⁻¹
enzyme (Arabidopsis thaliana, UniProt Q9C969) — kcat/Km (O=C(O)C(=O)Cc1ccc(O)c(C(=O)O)c1): 139000 M⁻¹ s⁻¹ and 106000 M⁻¹ s⁻¹ and 141000 M⁻¹ s⁻¹
B4 (enzyme S252E) — kcat/Km (NC(=O)C1=CN([C@@H]2O[C@H](COP(=O)(O)OP(=O)(O)OC[C@H]3O[C@@H](n4cnc5c(N)ncnc54)[C@H](O)[C@@H]3O)[C@@H](O)[C@H]2O)C=CC1; pH 7, 30 °C, apparent): 8600 ± 700 M⁻¹ s⁻¹
B5 (acsA) — kcat/Km (O=C(O)CCC(F)(F)F; pH 7): 16.7 ± 16.7 M⁻¹ s⁻¹
B6 (enzyme H130Y) — kcat/Km (C[S+](CC[C@H](N)C(=O)O)C[C@H]1O[C@@H](n2cnc3c(N)ncnc32)[C@H](O)[C@@H]1O; pH 7.9, 37 °C, apparent, together with: 1-200 µM SAM): 383 M⁻¹ s⁻¹
B7 (enzyme) — kcat/Km (O=[N+]([O-])c1ccc(O[C@@H]2O[C@@H](CO)[C@H](O)[C@H]2O)cc1; pH 4, 40 °C, apparent): 6.1 M⁻¹ s⁻¹
B8 (enzyme) — kcat/Km (O=C(O)O; pH 6.5, 25 °C): 9200 M⁻¹ s⁻¹
spt (Sphingomonas paucimobilis, UniProt Q93UV0) — kcat/Km (CCCCCCCCCCCC(=O)SCCNC(=O)CCNC(=O)[C@H](O)C(C)(C)COP(=O)(O)OP(=O)(O)OC[C@H]1O[C@@H](n2cnc3c(N)ncnc32)[C@H](O)[C@@H]1OP(=O)(O)O; together with: PLP): 440 M⁻¹ s⁻¹
asd (Escherichia coli, UniProt P0A9Q9) — kcat/Km (N[C@@H](CCC=O)C(=O)O; pH 7.6, apparent, together with: 1 mM NADP+): 21 ± 9 M⁻¹ s⁻¹
enzyme (UniProt Q83XK4) — kcat/Km (NC(=O)C1=CN([C@@H]2O[C@H](COP(=O)(O)OP(=O)(O)OC[C@H]3O[C@@H](n4cnc5c(N)ncnc54)[C@H](OP(=O)(O)O)[C@@H]3O)[C@@H](O)[C@H]2O)C=CC1; pH 7, 30 °C, cofactor varied): 9200 M⁻¹ s⁻¹
B9 (SCO6712 S292F/V290N/Y229F) — kcat/Km (CCn1c(=NN=c2sc3cc(S(=O)(=O)O)ccc3n2CC)sc2cc(S(=O)(=O)O)ccc21; pH 7, 37 °C, NaCl 150 mM, together with: O2 cosubstrate): 1400 ± 100 M⁻¹ s⁻¹
B10 (enzyme) — kcat/Km (CSCC(=O)[C@@H](O)[C@H](O)COP(=O)(O)O; together with: DTT): 200000 M⁻¹ s⁻¹

A few entries again:
B5 (acsA) — kcat/Km (O=C(O)CCC(F)(F)F; pH 7): 16.7 ± 16.7 M⁻¹ s⁻¹
